Experimental data pooled from the literature.
Each line is one published result; not all experiments were run side by side. ± gives the spread as reported.
Cell line: A549

SMILES | assay | setting | how to read | measurement | value
COCc1nc(C(F)(F)F)[nH]c1-c1cc(C(=O)N2CC(c3ccc(C#N)cc3)C2)c(C)cc1C | tubulin palmitoylation, acyl-biotin exchange Western blot, measured: palmitoyl-β-tubulin | 50 nM, 72 h |  | inhibition | 92%
FC(F)(F)c1ccnc(-c2cc(C(F)(F)F)ccn2)c1.FC(F)(F)c1ccnc(-c2cc(C(F)(F)F)ccn2)c1.[Cl-].[Cl-].[Ru+2].c1cnc2c(c1)ccc1cccnc12 | cell growth or viability, resazurin | dark |  | EC50 | > 300 µM
C[C@]1(CO)C2CC[C@@]3(CO3)[C@@H](/C=C/C3=CCOC3=O)[C@]2(C)CC[C@H]1O (stereo partly drawn) | cell growth or viability, MTT | 20 µM, 48 h |  | inhibition | 20.5%
Cc1cccc(-c2cccc(C)n2)n1.[Cl-].[Cl-].[Ru+2].c1ccc(-c2ccccn2)nc1.c1ccc(-c2ccccn2)nc1 | oxygen consumption rate, Seahorse extracellular flux | 1 h, dark |  | lowest concentration inhibiting OCR | > 25 µM
COc1ccc([C@@H]2CC(=O)c3c(O)cc(O[C@@H]4O[C@H](CO[C@@H]5O[C@@H](C)[C@H](O)[C@@H](O)[C@H]5O)[C@@H](O)[C@H](O)[C@H]4O)cc3O2)cc1O | trypan blue exclusion | 150 µg/mL, 72 h |  | cell count | 12100 ± 409
CC(=O)OC[C@H]1O[C@@H](Sc2sc(C(=O)c3ccc(C)cc3)c(N)c2-c2nc3ccccc3s2)[C@H](OC(C)=O)[C@@H](OC(C)=O)[C@@H]1OC(C)=O | SRB | 10 µM, 48 h |  | growth | 81.9%
Nc1cccc[n+]1Cc1cccc(C[n+]2ccccc2N)c1 | flow cytometry | 15 µM, 24 h |  | S phase cells | 11.5%
N=C(N)NCCC[C@@H]1NC(=O)[C@H](CCCCN)NC(=O)[C@@H](Cc2ccc(O)cc2)NC(=O)[C@H](CC(=O)O)NC(=O)CNC1=O | cell growth or viability, MTT |  |  | GI50 | 61 µM
CCCC1OC2CC3C4CCC5=CC(=O)C=CC5(C)C4C(O)CC3(C)C2(C(=O)COC(=O)CN(CC)CC)O1 (stereo not drawn) | IL-6 release, inhibitor, ELISA | 1 nM, 24 h, LPS-stimulated |  | inhibition | > 50%
[Cl-].[Cl][Ru-4]123([n+]4ccccc4-c4cc(-c5ccccc5)cc([n+]41)-c1cccc[n+]12)[n+]1ccc(-c2ccccc2)c2ccc4c(-c5ccccc5)cc[n+]3c4c21 |  | 0.5 µM, 24 h |  | cells with NPM1 translocation | 36%
C[C@H]1CN(C(=O)c2cn(-c3ccnc(N)n3)c3cc(C#CC4(O)CCCCC4)ccc23)CCN1 | wound-healing | 5 µM |  | cell migration | 32%
COc1ccc([C@@H]2CC(=O)c3c(O)cc(O[C@@H]4O[C@H](CO[C@@H]5O[C@@H](C)[C@H](O)[C@@H](O)[C@H]5O)[C@@H](O[C@H]5O[C@H](CO)[C@@H](O)[C@H](O)[C@H]5O)[C@H](O)[C@H]4O)cc3O2)cc1O | trypan blue exclusion | 50 µg/mL, 24 h |  | cell count | 13300 ± 389
CCN(CC)c1ccc2c(c1)Oc1cc(N(CC)CC)ccc1C21c2ccccc2C(=O)N1N=Cc1c[c-]c(-c2ccccn2)cc1.Cc1c(C)c(-c2ccc(-c3ccccc3)cc2)[c-](C)c1C.[Cl-].[Ir+3] | confocal microscopy, measured: lysosome colocalisation | 1×IC50, 1 h, added: LysoTracker Deep Red 500 nM |  | Pearson correlation coefficient | 0.87
CC/C=C\C/C=C\C/C=C\C/C=C\C/C=C\C/C=C\CCC(=O)Nc1ccn(C2OC(CO)C(O)C2(F)F)c(=O)n1 (stereo not drawn) | NCI-60 screen |  |  | GI50 | 0.0326 µM
S=c1n(-c2ccccc2)c2c3ccccc3nc3[n+]2[n]1[Ir-3]12([S]3)([c]3ccc4ccccc4c3-c3sc4ccccc4[n+]31)[c]1ccc3ccccc3c1-c1sc3ccccc3[n+]12 |  |  | relative to: IC50 dark over IC50 light | phototoxicity index | > 362
CCN1CCC2(CC1)C/C(=N\NC(=O)Nc1ccccc1)c1ccccc1O2 | PI staining, flow cytometry | concentration not given, %G0-G1 |  | cell cycle distribution | 56.2%
[Cl-].[Cl][Ru-]1[S+]=C(N2CCCC2)N[N+]1=Cc1ccc(N(c2ccccc2)c2ccccc2)cc1.c1ccccc1 |  | 20 µM, 24 h, then 10 days growth |  | colony formation | inhibited
Cn1nc(I)c2c(N)ncnc21 | cell growth or viability |  |  | EC50 | 1 µM
CC(C)=CCn1c2ccc(Br)c(=O)c-2nc2ccccc21 | cytotoxicity, WST-8 |  | relative to: IC50 MRC5 over IC50 A549 | selectivity index | 1.64
CC12COC(c3ccccc3)OC1CCC1(C)C(C=CC3=CCOC3=O)C(CO)=CCC21 (stereo not drawn) | cell growth or viability, MTT | 20 µM, 48 h |  | inhibition | 32.8%
FC(F)(F)c1ccnc(-c2cc(C(F)(F)F)ccn2)c1.FC(F)(F)c1ccnc(-c2cc(C(F)(F)F)ccn2)c1.[Cl-].[Cl-].[Ru+2].c1csc(-c2ccc(-c3ccc(-c4ccc(-c5nc6c7cccnc7c7ncccc7c6[nH]5)s4)s3)s2)c1 | cell viability | 100 J/cm2 light, normoxia, added: visible light 400-700 nm | relative to: dark over light EC50 | phototherapeutic index | 1500
Cc1cc(Nc2cc(CN3CCN(C)CC3)cc(NC(=O)c3cccc(Nc4ccnc5ccccc45)c3)c2)nc(N)n1 |  | concentration not given |  | time to peak γH2AX | 2 to 6 h
O=c1c2ccccc2oc2cc(OCc3cn(Cc4ccc(Br)cc4)nn3)cc(O)c12 | annexin V/PI flow cytometry | 34 µM, 48 h |  | total apoptotic cells | 24.2%
Cc1ccc(C(C)C)cc1.Oc1ccccc1C=NNC1=Nc2ccccc2-c2[nH]c3ccc(Br)cc3c2C1.[Cl-].[Cl][Ru+] | DNA synthesis, BrdU incorporation | 5 µM, 24 h |  | inhibition | ~50%

SMILES | assay | setting | how to read | measurement | value
[Cl-].[Cl-].[Ru+2].c1ccc(-c2ccccn2)nc1.c1ccc(-c2ccccn2)nc1.c1ccc(-c2ccccn2)nc1 | oxygen consumption rate, Seahorse extracellular flux | 1 h, added: indigo light 450 nm, 29.1 J/cm2 |  | lowest concentration inhibiting OCR | > 25 µM
Cc1cccc(-c2cccc(C)n2)n1.Cc1cccc(-c2cccc(C)n2)n1.[Cl-].[Cl-].[Ru+2].c1ccc(-c2ccnc3c2ccc2c(-c4ccccc4)ccnc23)cc1 | cell growth or viability | 72 h, dark |  | EC50 | 9.7 µM
COc1cc(CNC(=O)C[C@H](C)CCC=C(C)C)ccc1OCc1cn(-c2ccc(Cl)c(Cl)c2)nn1 | DCFDA fluorescence | 5 to 1.5 µM, 48 h |  | intracellular ROS | increased
O=C(CSC(=S)N1CCCCCC1)Nc1cccc2c1C(=O)c1ccccc1C2=O | phospho-flow cytometry | 25 µM, high serum | relative to: vehicle | phosphotyrosine level | ~2 fold decrease
Cc1cc(-c2ccccc2)c2ccc3c(-c4ccccc4)cc(C)nc3c2n1.[Cl-].[Cl-].[Ru+2].c1ccc(-c2ccccn2)nc1.c1ccc(-c2ccccn2)nc1 | LC-MS/MS | 3 µM |  | time to plateau uptake | 12 h
CCCC1OC2CC3C4CCC5=CC(=O)C=CC5(C)C4C(O)CC3(C)C2(C(=O)COC(=O)C(C)N)O1 (stereo not drawn) | IL-6 release, inhibitor, ELISA | 1 nM, 24 h, LPS-stimulated |  | inhibition | > 50%
CN(C)c1cccc2c(S(=O)(=O)NCCCCCC(=O)NO)cccc12 | cell cycle, propidium iodide flow cytometry | 10 µM |  | cells in G1 phase | 82.6%
O=C1Nc2ccccc2/C1=N\Nc1nnc2n1N=C(c1ccc(Cl)cc1)CS2 |  | 10 µM |  | growth inhibition | 18%
O=C1Nc2ccc(Cl)cc2/C1=N/Nc1nnc(Cc2ccccc2)c2ccccc12 |  | 5 µM, 16 h |  | caspase-3/7 activity | 3 fold
C[C@@H]1O[C@@H](OC[C@H]2O[C@@H](OCCc3ccc(O)c(O)c3)[C@H](O)[C@@H](O)[C@@H]2OC(=O)/C=C/c2ccc(O)c(O)c2)[C@H](O)[C@H](O)[C@H]1O | western blot | concentration not given |  | H3K4me1 accumulation | 233%
FC(F)(F)c1ccnc(-c2cc(C(F)(F)F)ccn2)c1.FC(F)(F)c1ccnc(-c2cc(C(F)(F)F)ccn2)c1.[Cl-].[Cl-].[Ru+2].c1csc(-c2ccc(-c3ccc(-c4nc5c6cccnc6c6ncccc6c5[nH]4)s3)s2)c1 | cell viability | 100 J/cm2 light, normoxia, added: visible light 400-700 nm |  | EC50 | 0.7 µM
O=[N+]([O-])c1ccc(Cn2cc(Cn3cc(CO)nn3)nn2)cc1 |  | 10 µM, 30 min |  | cells with cytosolic GFP-PLCδ1-PH | > 83%
CC(=O)c1cccc(NC2C(N)C(NC(=O)N(C)C)(C(C)OC(=O)C(C)(C)C)C(C)(O)C2(O)COC(=O)C(C)(C)C)c1 (stereo not drawn) | cell growth or viability |  |  | EC50 | 0.588 µM
CC(=O)O[C@@H]1CC[C@@]2(C)[C@@H](CC[C@]3(C)[C@@H]2C(=O)C=C2[C@@H]4[C@@H](C)[C@H](C)CC[C@]4(C)CC[C@]23C)[C@@]1(C)C(=O)NCCNC(=O)CCCCCCCCCC[P+](c1ccccc1)(c1ccccc1)c1ccccc1 | MTT |  | relative to: AKBA over compound IC50, higher = more potent than AKBA | antiproliferative potency ratio | ≤ 20 fold
CC1=C(Cn2c3ccc(Br)c(=O)c-3nc3ccccc32)CCC(C)(C)C1 | cytotoxicity, WST-8 |  | relative to: IC50 MRC5 over IC50 A549 | selectivity index | 0.82
O=C(NCc1cc(F)cc(F)c1)[C@@]1(O)CCN(c2ccc3[nH]ccc3c2)C1=O |  | 1e-05, 2.5e-06, 5e-07 mol/L |  | colony formation | inhibited
[Cl-].[Cl-].[Ru+2].c1ccc(-c2ccccn2)nc1.c1ccc(-c2ccccn2)nc1.c1ccc(-c2ccnc3c2ccc2c(-c4ccccc4)ccnc23)cc1 | Seahorse Mito Stress Test | concentration not given, added: 450 nm light 29.1 J/cm2 | relative to: vehicle | maximal respiration reduction | ≥ 90%
COc1ccc(/C=C/C2=[N+]3C(=C(COC(C)=O)c4c(C)cc(/C=C/c5ccc(OC)cc5)n4[B-]3(F)F)C(C)=C2)cc1 | resazurin | added: 645 nm light | relative to: dark over light IC50 | phototoxicity index | 9 ± 2
Cc1ccc2ccc3ccc(C)nc3c2n1.Cc1ccc2ccc3ccc(C)nc3c2n1.Clc1ccc(-c2cc(-c3ccccn3)nn2-c2ccccc2)cc1.[Cl-].[Cl-].[Ru+2] | oxygen consumption rate, Seahorse extracellular flux | 1 h, dark |  | lowest concentration inhibiting OCR | > 10 µM
COc1cc(C(=O)c2[nH]c(N)nc2-c2cccs2)cc(OC)c1OC | cell migration | 0.1 µM, 10 h |  | inhibition | 50%
[Cl-].[Cl-].[Ru+2].c1ccc2nc(-c3ccc4ccccc4n3)ccc2c1.c1ccc2nc(-c3ccc4ccccc4n3)ccc2c1.c1cnc2c(c1)ccc1cccnc12 | Seahorse Mito Stress Test | concentration not given, added: 450 nm light 29.1 J/cm2 | relative to: vehicle | maximal respiration reduction | < 30%
C[C@H]1O[C@@H]2C3=C(O[C@]2(C)[C@@]1(O)C=O)C(=O)c1c(O)cccc1C3=O | cell growth or viability, MTT | 48 h |  | EC50 | 3.51 mg/L
COc1ccc(/C=C/C2=[N+]3C(=C(CO)c4c(C)cc(/C=C/c5ccc(OC)cc5)n4[B-]3(F)F)C(C)=C2)cc1 | resazurin | added: 645 nm light | relative to: dark over light IC50 | phototoxicity index | 220 ± 100
CC(=O)c1cccc(NC2C(NC(=O)OCc3ccccc3)C(NC(=O)N(C)C)(C(C)O)C(C)(O)C2(O)COC(=O)c2c(C)cccc2O)c1 (stereo not drawn) | cell growth or viability |  |  | EC50 | 11.8 µM
